Measured values from different studies.
Numbered parts are unrelated; each lists some results of a single study. Changes are numbered by the printed parent chain.

Set 1 — method: RNA Bind-n-Seq; molecule type: RNA; matrix: in vitro; tested at: 365 nM; baseline: no-protein control; direction: higher = stronger binding
Target: RNA binding protein fox-1 homolog 2, RRM domain, GST-SBP tag (RBFOX2, Homo sapiens, UniProt O43251-10, residues 100-194)
Setting: natural RNA segment, single round, ends assumed
Constant ends, left off below: GGGAGUUCUACAGUCCGACGAUC … UGGAAUUCUCGGGUGCCAA
Residues (chain): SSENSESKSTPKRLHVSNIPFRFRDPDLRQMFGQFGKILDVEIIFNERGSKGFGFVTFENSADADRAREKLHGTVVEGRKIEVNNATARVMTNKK
Sequence	RBNS enrichment (R)
GCUUCUGCCUCUGUUUCCAAGCCCACCCUUUUCCCCUGAGCUCAGGGUUAGGGAUGGGCGCUUUCCUCUCUGGUUGUGAACGAAAGGAAGGAACAUCUUUCUAUGGCUAA	0.311
GGGAAGUAGCUUCUCCCAGCUGUUCCUCACCUCACCAGAUAUUUUCCCAAAGCCGAAACAAGAAAAGUCAGCAUGCCUGGGGCUAGAAGCGGAAUGUAAGAUACGUCUCU	26.2
CCAGGAUCCCUUUGGUGAGUAUGGUGUUCAGGAUGCACCACCACCACCUCUAGAUACCUUCAGGCAACACAGCCCAGUUUUAACCUCUAGUAUCCAUGACCAAACUAUCC	0.416
UUUAACUAGAUGUAGUAACCUUUUUUUUCUUUACUUCUAAAACAGUUACAGUUUACUAAUAAAGUUAAGUCUGGUUCUGUCCUAGAGGAAAUAAAUUCACUAUUAAUUCA	0.506
UCGGGAUCUUAGUACAUGGACUUAAAAGGCAACACUACAUCAAUGGUUUGUAUAUGUGGUGAAUUCCUGCAAGAACAGUGCAUUUGUAUUAGAAAUGUAAGUUUUAAGGA	0.369
GUGUGACUUGGCUAGAGUUGGGAGUUCCCCCAAAAUAAACGUGUCCCCAUUUUACCAGAACCAAACCUCAACACAGCGAAGCUGUACUGUCUUUGUGUGGCAAAGAUGUU	0.655
AAAGAAUGGGUAUACGCAGUGACUUCCGAUGGAAAUCUCCAAAACAAUAUUCCUAAGUAGCAAUGGGGUUGGCUCAAGUCUUUAUUAACAAAGAACAUUCUCUUUCAUCU	0.635
ACAGUAUAACCAUGUAGCCAAUUGUGGCCCACUAAAAUCUACAGAAGUUAAUGUGGGUCACCAUUUUGGUCAGAAGCAUACAUUCCUGUCAGACAACUAGUUGUCUGACA	0.354

Set 2 — target: CCND1, cyclin fold, Cln2 fusion (human); method: yeast growth competition, sequencing; matrix: yeast; setting: weak parent motif; baseline: not given; direction: higher = stronger binding; starting sequence: viral docking peptide; TSVRRALFTGGSD
Change	normalised enrichment score
TSVRRCLFTGGSD [A6C]	0.581
TSGRRALFTGGSD [V3G]	-0.131
TSVRRALFTYGSD [G10Y]	0.399
TSVRRALFTGGKD [S12K]	-0.225
TSVRRALFTGGFD [S12F]	0.171
TSVRRALFTGHSD [G11H]	0.267
TNVRRALFTGGSD [S2N]	0.487
TLVRRALFTGGSD [S2L]	0.541
TTVRRALFTGGSD [S2T]	0.619
TSVRRYLFTGGSD [A6Y]	-0.0982
TSVRRALWTGGSD [F8W]	0.302
TSVRRALATGGSD [F8A]	0.0485
TSVYRALFTGGSD [R4Y]	0.425
TSVRHALFTGGSD [R5H]	0.287
TSVHRALFTGGSD [R4H]	-0.268
TSVRRAYFTGGSD [L7Y]	0.389
TSVRRALFTGGND [S12N]	0.524
TSVRRASFTGGSD [L7S]	-0.0155
TSVRRALFTGCSD [G11C]	0.55
TDVRRALFTGGSD [S2D]	0.264
TSVRRALFTGGRD [S12R]	0.487
TSVTRALFTGGSD [R4T]	0.386
TYVRRALFTGGSD [S2Y]	0.594

Set 3 — target: tungstate, free oxyanion; method: microfluidic competitive inhibition; matrix: in vitro, cell-free expressed; tested at: not given; direction: lower = stronger binding
Setting: derived from inhibition constants, unchanged parent 2230 nM
Starting sequence: PafA, mature enzyme, eGFP fusion (Elizabethkingia meningoseptica, UniProt Q9KJX5); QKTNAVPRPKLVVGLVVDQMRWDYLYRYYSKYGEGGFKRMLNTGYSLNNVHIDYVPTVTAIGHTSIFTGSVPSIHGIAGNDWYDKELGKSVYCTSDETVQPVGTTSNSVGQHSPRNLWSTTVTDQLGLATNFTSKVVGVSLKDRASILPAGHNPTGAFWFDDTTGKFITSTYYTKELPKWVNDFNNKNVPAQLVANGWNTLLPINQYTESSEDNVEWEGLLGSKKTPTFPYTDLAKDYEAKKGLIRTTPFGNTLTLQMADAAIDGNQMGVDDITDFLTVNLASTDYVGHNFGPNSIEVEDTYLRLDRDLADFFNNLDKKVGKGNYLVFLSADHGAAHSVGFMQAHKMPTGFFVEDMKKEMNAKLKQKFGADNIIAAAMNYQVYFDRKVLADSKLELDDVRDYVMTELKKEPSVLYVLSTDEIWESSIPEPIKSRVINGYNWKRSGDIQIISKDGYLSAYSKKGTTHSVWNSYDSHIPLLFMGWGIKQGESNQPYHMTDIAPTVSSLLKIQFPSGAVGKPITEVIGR
Change	oxyanion analog dissociation constant
Q1G	2.39 µM
A376G	2.09 µM
V468G	1.11 µM
D355V	2.12 µM
K322G	2.2 µM

Set 4 — method: aptamer microarray, sandwich; molecule type: DNA with 2'F-ANA; matrix: in vitro; tested at: 200 nM; together with: Cy3 exosite-II aptamer, 400 nM; direction: higher = stronger binding; sequence: GGTTGGTGTGGTTGG
Target: Prothrombin, mature alpha-thrombin (F2, Homo sapiens, UniProt P00734)
Setting: whole 15-mer aptamer, many near background
Modification	mean fluorescence intensity [a.u.]
2'F-ANA at 4 5 13 14 15	45.4
2'F-ANA at 1 4 5 7 9 12	125
2'F-ANA at 1 2 6 9 10 12 13	56.9
2'F-ANA at 3 4 5 7 9 12	215
2'F-ANA at 1 2 7 8 9 12 13 15	281
2'F-ANA at 1 6 7 8 11 12	335
2'F-ANA at 2 3 4 5 6 8 10 12 14	51
2'F-ANA at 1 2 4 5 6 11 12 15	80.8

Set 5 — method: competition protein-binding microarray; molecule type: double-stranded DNA, one strand shown; matrix: in vitro; tested at: 2 µM; together with: Pho4 competitor, 0.05 µM; direction: higher = stronger binding; constant ends, left off below: … GTCTTGATTCGCTTGACGCTGCTG
Target: Centromere-binding protein 1, full length, His-tagged (CBF1, Saccharomyces cerevisiae, UniProt P17106, residues 1-351)
Sequence of UniProt P17106 (whole entry, looked up): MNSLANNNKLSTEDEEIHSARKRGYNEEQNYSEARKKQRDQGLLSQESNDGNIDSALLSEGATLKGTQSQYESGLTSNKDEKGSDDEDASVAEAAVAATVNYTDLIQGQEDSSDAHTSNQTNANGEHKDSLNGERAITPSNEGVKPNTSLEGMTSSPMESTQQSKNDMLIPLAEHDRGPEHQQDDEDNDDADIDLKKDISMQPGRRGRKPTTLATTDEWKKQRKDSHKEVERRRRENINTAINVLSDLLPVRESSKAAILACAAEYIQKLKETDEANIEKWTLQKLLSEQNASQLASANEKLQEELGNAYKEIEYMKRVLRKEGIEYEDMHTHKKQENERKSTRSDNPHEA
Setting: whole 60-bp probe, lowest competitor level
Sequence	fluorescence intensity [a.u.]
AACTGCGACCGACACAGCGTGCGATACTAGGGAAGT	64
GTCTTGTCTCATTGTCCCGTGGGTGTCCCCACTTCA	114
TGCGCAACAACTTGATGTGTGGGTGTATGTCTAGAA	77.8
CTGCAAGGAAGTTTAAGCGTGGGTAACTTTGCTAGG	70.2
TTATGTACAACAGCCCTCGTGCTTTCACCGTTGTAG	138
GGTAACGAGATGGATCTCGTGAAGGATGATATCAAT	153
CGACTTGGTAGAAAGCACGATCTTCAGTGGAGTTGA	77.5
TACGGCCCAACTCCGCACGCTGCCAAGGAGAGCATT	60.6

For quick reference, copied from above (set 2):
Change	normalised enrichment score
TSVRRYLFTGGSD [A6Y]	-0.0982
TSVRRALWTGGSD [F8W]	0.302
TSVRRALATGGSD [F8A]	0.0485
